Measurements collected from several papers.
Protocols differ between the studies behind these lines. Values after ≈ are worked out from the molar mass of the structure shown.
Sequence of UniProt Q32MK0 (whole entry, looked up): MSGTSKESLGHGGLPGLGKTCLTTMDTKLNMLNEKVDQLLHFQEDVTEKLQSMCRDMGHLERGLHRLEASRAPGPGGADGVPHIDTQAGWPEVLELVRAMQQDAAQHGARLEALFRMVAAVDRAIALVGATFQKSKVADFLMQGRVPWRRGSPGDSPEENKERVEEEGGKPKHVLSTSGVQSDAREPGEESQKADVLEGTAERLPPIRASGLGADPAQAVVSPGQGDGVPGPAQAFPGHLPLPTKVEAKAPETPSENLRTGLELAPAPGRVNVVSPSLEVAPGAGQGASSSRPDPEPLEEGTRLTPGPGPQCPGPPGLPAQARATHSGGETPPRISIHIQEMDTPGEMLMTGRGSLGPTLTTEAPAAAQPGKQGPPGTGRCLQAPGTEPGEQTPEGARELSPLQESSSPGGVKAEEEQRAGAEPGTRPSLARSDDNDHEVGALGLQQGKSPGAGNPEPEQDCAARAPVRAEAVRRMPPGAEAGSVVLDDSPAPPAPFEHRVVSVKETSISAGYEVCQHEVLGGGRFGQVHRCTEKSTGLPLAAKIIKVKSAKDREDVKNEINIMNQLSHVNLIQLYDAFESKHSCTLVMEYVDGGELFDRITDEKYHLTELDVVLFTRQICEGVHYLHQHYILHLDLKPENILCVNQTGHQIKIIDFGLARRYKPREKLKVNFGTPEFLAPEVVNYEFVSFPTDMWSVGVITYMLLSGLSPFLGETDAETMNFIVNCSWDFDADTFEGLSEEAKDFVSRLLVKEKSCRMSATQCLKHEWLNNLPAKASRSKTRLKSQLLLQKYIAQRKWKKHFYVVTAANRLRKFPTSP
Sequence of UniProt P62344 (whole entry, looked up): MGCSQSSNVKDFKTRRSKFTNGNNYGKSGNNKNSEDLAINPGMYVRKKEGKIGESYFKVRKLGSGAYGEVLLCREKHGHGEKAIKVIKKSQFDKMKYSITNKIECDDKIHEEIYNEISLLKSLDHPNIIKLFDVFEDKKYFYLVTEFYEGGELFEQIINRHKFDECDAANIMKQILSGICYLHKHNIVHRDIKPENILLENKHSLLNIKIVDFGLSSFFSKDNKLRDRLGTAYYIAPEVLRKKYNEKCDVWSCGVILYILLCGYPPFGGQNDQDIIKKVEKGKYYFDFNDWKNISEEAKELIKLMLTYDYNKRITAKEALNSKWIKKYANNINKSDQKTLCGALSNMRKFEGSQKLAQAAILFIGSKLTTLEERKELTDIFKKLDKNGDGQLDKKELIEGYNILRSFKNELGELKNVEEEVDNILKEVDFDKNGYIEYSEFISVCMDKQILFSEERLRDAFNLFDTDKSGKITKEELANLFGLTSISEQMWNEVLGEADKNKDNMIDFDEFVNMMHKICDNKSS
Sequence of UniProt P54762 (whole entry, looked up): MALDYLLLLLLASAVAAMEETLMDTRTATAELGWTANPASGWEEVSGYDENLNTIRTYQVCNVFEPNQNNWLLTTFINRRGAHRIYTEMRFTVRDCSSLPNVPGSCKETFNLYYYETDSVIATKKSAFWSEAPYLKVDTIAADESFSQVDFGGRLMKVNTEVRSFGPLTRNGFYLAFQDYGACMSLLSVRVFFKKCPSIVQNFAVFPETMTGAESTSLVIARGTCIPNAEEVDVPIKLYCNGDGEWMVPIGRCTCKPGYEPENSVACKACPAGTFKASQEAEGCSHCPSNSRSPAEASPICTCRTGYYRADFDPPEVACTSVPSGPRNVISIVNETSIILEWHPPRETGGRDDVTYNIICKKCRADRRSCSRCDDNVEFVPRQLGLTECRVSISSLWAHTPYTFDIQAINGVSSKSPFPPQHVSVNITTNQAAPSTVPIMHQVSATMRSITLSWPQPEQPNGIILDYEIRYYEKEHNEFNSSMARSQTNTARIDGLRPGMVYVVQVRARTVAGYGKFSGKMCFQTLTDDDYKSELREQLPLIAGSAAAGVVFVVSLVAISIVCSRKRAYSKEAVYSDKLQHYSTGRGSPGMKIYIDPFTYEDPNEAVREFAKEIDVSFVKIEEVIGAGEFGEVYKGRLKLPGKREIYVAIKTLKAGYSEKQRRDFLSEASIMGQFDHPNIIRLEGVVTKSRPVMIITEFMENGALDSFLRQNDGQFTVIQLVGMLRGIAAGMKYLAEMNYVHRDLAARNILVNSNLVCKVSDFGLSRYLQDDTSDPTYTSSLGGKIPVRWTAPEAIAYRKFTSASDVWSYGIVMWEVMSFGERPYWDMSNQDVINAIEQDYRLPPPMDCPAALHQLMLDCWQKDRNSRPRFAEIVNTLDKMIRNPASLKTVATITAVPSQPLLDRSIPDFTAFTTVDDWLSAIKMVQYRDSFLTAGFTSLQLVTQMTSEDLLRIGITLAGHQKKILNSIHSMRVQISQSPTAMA
Sequence of UniProt Q06187 (whole entry, looked up): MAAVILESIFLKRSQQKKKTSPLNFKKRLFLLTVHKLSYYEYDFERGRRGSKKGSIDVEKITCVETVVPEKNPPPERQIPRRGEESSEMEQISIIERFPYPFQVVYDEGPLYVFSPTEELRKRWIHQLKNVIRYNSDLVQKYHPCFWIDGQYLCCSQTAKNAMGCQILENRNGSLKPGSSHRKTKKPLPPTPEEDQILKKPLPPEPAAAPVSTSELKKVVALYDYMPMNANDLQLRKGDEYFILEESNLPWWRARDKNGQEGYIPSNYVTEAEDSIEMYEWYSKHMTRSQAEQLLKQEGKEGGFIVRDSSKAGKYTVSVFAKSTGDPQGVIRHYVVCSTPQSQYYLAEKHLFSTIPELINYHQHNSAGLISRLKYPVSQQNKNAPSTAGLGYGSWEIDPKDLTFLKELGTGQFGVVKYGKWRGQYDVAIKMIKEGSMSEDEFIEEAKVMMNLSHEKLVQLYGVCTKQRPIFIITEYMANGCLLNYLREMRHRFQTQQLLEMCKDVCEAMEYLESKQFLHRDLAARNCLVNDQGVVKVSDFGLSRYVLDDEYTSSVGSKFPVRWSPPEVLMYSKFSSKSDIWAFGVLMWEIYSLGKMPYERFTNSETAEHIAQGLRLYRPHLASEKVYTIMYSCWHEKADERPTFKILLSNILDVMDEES

SMILES	tested on	test	test system	setting	quantity	result
COc1cccc(C(=O)COc2nc(C)cc(C)c2C#N)c1	Trypanosoma brucei	parasite growth, resazurin	–	–	EC50	45 µM
NS(=O)(=O)c1ccc(N/C=C2\C(=O)Nc3ccc4ncsc4c32)cc1	Trypanosoma brucei	parasite growth	–	–	EC50	0.316 µM
CC(C)(C)OC(=O)N[C@@H]1CCN(c2cc(C(=O)NCC(=O)O)ccc2NC(=O)c2cc(Br)c(Br)[nH]2)C1	Klebsiella aerogenes	microbial growth, broth dilution	ATCC13408	–	MIC	> 32 µg/mL
O=c1oc2c(O)c(O)cc3c(=O)oc4c(O)c(O)cc1c4c23	Streptococcus mutans	microbial growth, disc diffusion	–	500 µg/disc	inhibition zone	17 mm
CC(C)[C@@H]1NC(=O)[C@@H](Cc2c[nH]cn2)NC(=O)[C@H]([C@@H](C)O)NC(=O)[C@@H](CCCN)NC(=O)[C@H](Cc2ccccc2)NC(=O)[C@@H](Cc2ccccc2)NC1=O	Balamuthia mandrillaris	parasite growth, ATP luminescence	–	–	IC90	13.1 µM
COc1cc(-c2cncc3c2CN(C)Cc2cc(N4CCNCC4)ccc2-3)cc(OC)c1OC	EPHB1 (Homo sapiens, UniProt P54762)	enzyme activity, inhibitor	–	1 µM	remaining activity	101%
O=c1cc(-c2ccc(O)c(O)c2)oc2cc(O)cc(O)c12	Helicobacter pylori	microbial growth, broth dilution	–	125 µg/mL	inhibition	100%
CN(Cc1ccc(C2(C(F)(F)F)CC2)cc1)Cc1cccc2ccccc12	Trichophyton mentagrophytes	microbial growth, disc diffusion	ATCC18748	0.008 µg/mL, 72 h	inhibition zone	28.2 mm
O=c1cc(-c2ccc(O)cc2)oc2cc(O)cc(O)c12	Helicobacter pylori	microbial growth, broth dilution	–	1.95 µg/mL	inhibition	100%
CN[C@H](CC(C)C)C(=O)N[C@H]1C(=O)N[C@@H](CC(N)=O)C(=O)N[C@H]2C(=O)N[C@H]3C(=O)N[C@H](C(=O)N[C@H](C(=O)O)c4cc(O)cc(O)c4-c4cc3ccc4O)[C@H](O)c3ccc(c(Cl)c3)Oc3cc2cc(c3O[C@@H]2O[C@H](CO)[C@@H](O)[C@H](O)[C@H]2O[C@H]2C[C@](C)(N)[C@H](O)[C@H](C)O2)Oc2ccc(cc2Cl)[C@H]1O	Streptococcus pneumoniae	microbial growth	–	clinical isolate	MIC90	1 µg/mL (≈ 0.69 µM)
CC1(C)CC[C@]2(C(=O)OCCC3OCCCO3)CC[C@]3(C)C(=CC[C@@H]4[C@@]5(C)CC[C@H](O)[C@@](C)(CO)[C@@H]5CC[C@]43C)[C@@H]2C1	Leishmania mexicana	parasite growth, resazurin	–	50 µM, amastigote	inhibition	99.6%
CNc1ncc2c(/C=C/C(=O)N3CCC(OC)CC3)nn(Cc3cccc(C(F)(F)F)c3)c2n1	BTK (Homo sapiens, UniProt Q06187)	enzyme activity, inhibitor, radiometric	–	1 µM	remaining activity	76%
N#Cc1cccc(Nc2ncc(-c3ccccc3)o2)c1	Trypanosoma brucei	parasite growth	–	–	EC50	1.58 µM
CN(Cc1ccc(C(C)(C)C)cc1)Cc1cccc2ccccc12	Trichophyton mentagrophytes	microbial growth, disc diffusion	ATCC18748	0.00025 µg/mL, 72 h	inhibition zone	0 mm
CCN(c1ccc(F)cc1)c1c(-c2ccccn2)nc2ccccn12	Leishmania infantum	parasite growth	–	intracellular, amastigote	IC50	1.29 µM
COC(=O)[C@]12CCC(C)(C)C[C@H]1C1=CC[C@@H]3[C@@]4(C)CC[C@@H]5O[C@H](c6ccccc6C(=O)O)OC[C@@]5(C)[C@@H]4CC[C@@]3(C)[C@]1(C)CC2	Leishmania mexicana	parasite growth, resazurin	–	50 µM, amastigote	inhibition	100%
CCCS(=O)(=O)Oc1ccc(C=NNC(=O)CSc2nc3c(C)cccc3c(=O)n2-c2ccccc2)cc1OC	Salmonella enterica	microbial growth, well diffusion	TYPHIMURIUM	20 µg/mL	inhibition zone	2 mm
Nc1ncnc2occ(-c3ccc(NC(=O)Nc4cc(C(F)(F)F)cc(C(F)(F)F)c4)cc3)c12	Trypanosoma brucei	parasite growth	–	–	EC50	2 µM
COC(=O)[C@]12CCC(C)(C)C[C@H]1C1=CC[C@@H]3[C@@]4(C)CC[C@H](O)[C@@](C)(CO)[C@@H]4CC[C@@]3(C)[C@]1(C)CC2	Leishmania mexicana	parasite growth, resazurin	–	50 µM, amastigote	inhibition	97.2%
CC(C)[C@@H]1NC(=O)[C@@H](CCCNC(=N)N)NC(=O)[C@H]([C@@H](C)O)NC(=O)[C@@H](CN)NC(=O)[C@H](Cc2ccccc2)NC(=O)[C@@H](Cc2ccccc2)NC1=O	Balamuthia mandrillaris	parasite growth, ATP luminescence	–	–	IC50	18 µM
CC(=O)Oc1ccccc1C(=O)CSc1nc(C)cc(C)c1C#N	Trypanosoma brucei	parasite growth, resazurin	RHODESIENSE	–	EC50	39.2 µM
Cc1[nH]c(C(=O)Nc2ccc(C(=O)NCc3n[nH]c(=O)o3)cc2N2CCN(C(=O)OC(C)(C)C)CC2)c(Cl)c1Cl	Klebsiella aerogenes	microbial growth, broth dilution	ATCC13408	–	MIC	> 32 µg/mL
COc1cc([C@H]2OC[C@H]3[C@@H]2CO[C@@H]3c2cc(OC)c(O)c(OC)c2)cc(OC)c1O	Helicobacter pylori	microbial growth, broth dilution	–	0.98 µg/mL	inhibition	100%
Fc1ccc(Nc2c(-c3ccccn3)nc3cnccn23)cc1	Leishmania infantum	parasite growth	–	intracellular, amastigote	IC50	> 64 µM
C[C@@H]1O[C@@H](C[C@@H]2OC[C@@]3(C)[C@@H]4CC[C@]5(C)[C@H](CC=C6[C@@H]7CC(C)(C)CC[C@]7(C(=O)O)CC[C@]65C)[C@@]4(C)CC[C@@H]3O2)[C@H](O)[C@H](O)[C@H]1O	Leishmania mexicana	parasite growth, resazurin	–	50 µM, amastigote	inhibition	97.6%
CC(C)[C@@H]1NC(=O)[C@@H](CO)NC(=O)[C@@H](CCCNC(=N)N)NC(=O)[C@H](Cc2ccccc2)NC1=O	Balamuthia mandrillaris	parasite growth, ATP luminescence	–	–	IC90	> 16 µg/mL
CC[C@H]1OC(=O)[C@H](C)[C@@H](O[C@H]2C[C@@](C)(OC)[C@@H](O)[C@H](C)O2)[C@H](C)[C@@H](O[C@@H]2O[C@H](C)C[C@H](N(C)C)[C@H]2O)[C@](C)(OC)C[C@@H](C)C(=O)[C@H](C)[C@@H](O)[C@]1(C)O	Helicobacter pylori	microbial growth, broth dilution	–	125 µg/mL	inhibition	100%

SMILES	tested on	test	test system	setting	quantity	result
CN1CCN(CCCNc2nc3ccc(Oc4ccc(NC(=O)Nc5cc(C(F)(F)F)ccc5F)cc4)cc3[nH]2)CC1	Trypanosoma brucei	parasite growth	–	–	EC50	2 µM
C[C@H](O)[C@H]1OC(C[C@@H]2OC[C@@]3(C)[C@@H]4CC[C@]5(C)[C@H](CC=C6[C@@H]7CC(C)(C)CC[C@]7(C(=O)O)CC[C@]65C)[C@@]4(C)CC[C@@H]3O2)[C@@H](O)[C@@H]1O (some centres unmarked)	Leishmania mexicana	parasite growth, resazurin	–	50 µM, amastigote	inhibition	97.8%
COC(=O)c1ccc(O)cc1	Helicobacter pylori	microbial growth, broth dilution	–	0.24 µg/mL	inhibition	19.9%
Cc1cc(C)c(C#N)c(SCC(=O)c2ccc(Cl)cc2Cl)n1	Leishmania infantum	parasite growth	mouse Macrophage	intracellular, amastigote	EC50	6.19 µM
COc1ccc2nc(-c3cc(N(C)C)ccn3)c(Nc3ccc(F)cc3)n2c1	Leishmania infantum	parasite growth	–	intracellular, amastigote	EC50	1.58 µM
Cc1cc(C)c(C#N)c(SCC(=O)Nc2ccccc2)n1	Leishmania infantum	parasite growth	mouse Macrophage	intracellular, amastigote	EC50	> 64 µM
C=C[C@@]1(C)C=C2CC[C@@H]3[C@](C)(CCC[C@@]3(C)C(=O)O)[C@H]2CC1	Helicobacter pylori	microbial growth, broth dilution	–	0.24 µg/mL	inhibition	9.35%
N#Cc1cccnc1SCC(=O)c1ccc(F)cc1	Trypanosoma brucei	parasite growth, resazurin	–	–	EC50	> 64 µM
Cc1ccc2nc(-c3ccccc3)cn2c1	Leishmania infantum	parasite growth	–	intracellular, amastigote	IC50	> 64 µM
CC1(C)CC[C@]2(C(=O)O)CC[C@]3(C)C(=CC[C@@H]4[C@@]5(C)CC[C@@H]6O[C@H]([C@H](O)[C@@H](O)[C@H](O)[C@H](O)CO)OC[C@@]6(C)[C@@H]5CC[C@]43C)[C@@H]2C1	Leishmania mexicana	parasite growth, resazurin	–	50 µM, amastigote	inhibition	96.2%
CN(c1ccc(F)cc1)c1c(-c2cccc(F)n2)nc2ccccn12	Leishmania infantum	parasite growth	–	intracellular, amastigote	EC50	10 µM
O=C(O[C@H]1CN[C@H](C#Cc2cc3ncnc(Nc4ccc(OCc5cccc(F)c5)c(Cl)c4)c3s2)C1)N1CCOCC1	Trypanosoma brucei	parasite growth	–	–	EC50	2 µM
CC(C)[C@@H]1NC(=O)[C@@H](C)NC(=O)[C@H]([C@@H](C)O)NC(=O)[C@@H](CCCN)NC(=O)[C@H](Cc2ccccc2)NC(=O)[C@@H](Cc2ccccc2)NC1=O	Balamuthia mandrillaris	parasite growth, ATP luminescence	–	72 h	IC50	> 20 µM
CN(c1ccc(NC(=O)Nc2ccc(OC(F)(F)F)cc2)cc1)c1ccnc(Nc2cccc(S(N)(=O)=O)c2)n1	Trypanosoma brucei	parasite growth	–	–	EC50	0.251 µM
CCCCC(=O)Nc1ccc(-c2ccc3ncn(CCC)c(=O)c3c2)cn1	MYLK3 (Homo sapiens, UniProt Q32MK0)	binding, competition with immobilised ligand	–	0.5 µM	remaining binding	100%
Cc1cc(C)c(C#N)c(SCC(=O)c2ccc(Cl)cc2)n1	Trypanosoma brucei	parasite growth, resazurin	–	–	EC50	60.1 µM
CCS(=O)(=O)c1ccc(OC)c(Nc2nccc(N(C)c3ccc4c(C)n[nH]c4c3)n2)c1	Trypanosoma brucei	parasite growth	–	–	EC50	3.16 µM
CC(C)[C@@H]1NC(=O)[C@@H](CCCNC(=N)N)NC(=O)[C@H]([C@@H](C)O)NC(=O)[C@@H](CCCN)NC(=O)[C@H](Cc2ccccc2)NC(=O)[C@@H](C)NC1=O	Balamuthia mandrillaris	parasite growth, ATP luminescence	–	–	IC90	> 20 µM
COC(=O)[C@]12CCC(C)(C)C[C@H]1C1=CC[C@@H]3[C@@]4(C)CC[C@@H]5O[C@H](CC6O[C@H]([C@H](C)O)[C@@H](O)[C@@H]6O)OC[C@@]5(C)[C@@H]4CC[C@@]3(C)[C@]1(C)CC2 (some centres unmarked)	Leishmania mexicana	parasite growth, resazurin	–	50 µM, amastigote	inhibition	98%
Cc1cc(C)c(C#N)c(SC(C)C(=O)c2ccccc2)n1 (centres unmarked)	Trypanosoma brucei	parasite growth, resazurin	–	–	EC50	> 64 µM
Cc1ccc(N(c2ccc(NC(=O)CN(C)c3ccccc3N3CCCC3=O)cc2)C(C)C)cc1	Plasmodium falciparum	parasite growth, SYBR Green	DD2	72 h, blood stage	EC90	0.009 µM
COc1ccn2c(Nc3ccc(F)cc3)c(-c3ccccn3)nc2c1	Leishmania infantum	parasite growth	–	intracellular, amastigote	IC50	8.11 µM
COc1ccc(-c2cc(=O)c3c(O)cc(O[C@@H]4O[C@H](CO)[C@@H](O)[C@H](O)[C@H]4O)cc3o2)cc1O	Helicobacter pylori	microbial growth, broth dilution	–	125 µg/mL	inhibition	100%
Cc1cc(C)c(C#N)c(SCC(=O)c2ccsc2)n1	Leishmania infantum	parasite growth	mouse Macrophage	intracellular, amastigote	EC50	> 64 µM
C[C@H](O)[C@H](O)[C@@H](O)[C@@H](O)[C@@H]1OC[C@@]2(C)[C@@H]3CC[C@]4(C)[C@H](CC=C5[C@@H]6CC(C)(C)CC[C@]6(CO)CC[C@]54C)[C@@]3(C)CC[C@@H]2O1	Leishmania mexicana	parasite growth, resazurin	–	50 µM, amastigote	inhibition	100%
C=CC(=O)N1CCC(COCC(=O)N2CCN(c3nc(-c4cnc(N)nc4C(F)F)nc(N4CCOC[C@@H]4C)n3)CC2)CC1	CDPK1 (Plasmodium falciparum, UniProt P62344)	binding, competition with immobilised ligand	–	1 µM	remaining binding	100%
